Results collected from several papers.
Each numbered part is a random draw from the data of one study; scales do not carry over between parts.

Block 1 — host: human; sample: microsomes or S9; concentration: 2 µM; time: 0.5 h
SMILES | remaining compound [%]
O=C(C1CCOCC1)N1CCCC(Cn2cnc3cccnc32)C1 (stereo not drawn) | 95.7
CCc1nc2n(n1)C1(CCCCC1)[C@@H]1CCCC[C@@H]1N2C(=O)CC(C)C | 0.254
CC(=O)N1N=C(c2c(-c3ccccc3)c3ccccc3[nH]c2=O)CC1c1ccnc2ccccc12 (stereo not drawn) | 55.5
CN(C)CCOc1cc(N2C(=O)c3ccccc3S2(=O)=O)ccc1Cl | > 99
COc1ccccc1OCC(=O)N(Cc1ccc(-c2ccc(F)cc2)o1)C1CCS(=O)(=O)C1 (stereo not drawn) | 2.62
N#Cc1ccccc1COc1ccc2c(c1)OCO2 | 55.4
Cc1n[nH]c(-n2ccc3nc4ccn(CCc5ccccc5)c(=O)c4cc3c2=O)n1 | 82.6
O=C1C(c2cnc3ccccc3c2)=C(c2cc(F)cc(F)c2)c2ccc(OCCN3CCS(=O)(=O)CC3)cc21 | 44.3

Block 2 — read-out: enzyme activity; action: inhibitor; concentration: 0.5 µM; baseline: control
Target: Activin receptor type-1-like (ACVRL1, Homo sapiens, UniProt P37023)
Chain of UniProt P37023 (whole entry, looked up): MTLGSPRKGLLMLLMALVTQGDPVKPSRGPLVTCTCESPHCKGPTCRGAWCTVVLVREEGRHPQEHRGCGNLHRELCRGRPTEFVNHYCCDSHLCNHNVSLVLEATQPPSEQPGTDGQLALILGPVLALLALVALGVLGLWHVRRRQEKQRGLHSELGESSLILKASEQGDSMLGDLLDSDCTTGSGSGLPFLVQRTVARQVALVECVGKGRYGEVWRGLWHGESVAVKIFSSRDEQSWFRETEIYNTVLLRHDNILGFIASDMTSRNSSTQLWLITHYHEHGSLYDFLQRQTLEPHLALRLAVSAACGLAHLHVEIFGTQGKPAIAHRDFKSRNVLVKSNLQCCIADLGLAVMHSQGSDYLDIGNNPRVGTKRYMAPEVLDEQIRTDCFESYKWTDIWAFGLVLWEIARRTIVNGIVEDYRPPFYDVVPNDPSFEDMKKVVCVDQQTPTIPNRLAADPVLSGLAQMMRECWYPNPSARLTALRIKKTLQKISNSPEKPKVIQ
Structure (SMILES) | remaining activity [%]
c1ccc(-c2n[nH]c3c2oc2ccccc23)cc1 | 111
O=C1Cc2c([nH]c3ccc(Br)cc23)-c2ccccc2N1 | 99
COc1cccc(-c2cc(=O)c3ccccc3o2)c1N | 93.5
O=C1NC(=O)c2c1c1c3ccccc3[nH]c1n1cncc21 | 109
N#Cc1cnc2cnc(NCc3cccnc3)cc2c1Nc1ccc(F)c(Cl)c1 | 96.9
CCCCc1c(-c2ccc(OC)cc2)[nH]c2nccnc12 | 77
CCCNC(=O)Nc1ccc(Oc2ncnc3cc(OC)c(OC)cc23)cc1Cl | 100
Cc1ccc(S(=O)(=O)/C=C/C#N)cc1 | 100
Oc1cccc(-c2nc(N3CCOCC3)c3oc4ncccc4c3n2)c1 | 105
c1ccc2c(-c3ccncc3)c[nH]c2c1 | 100

Block 3 — read-out: ligand displacement; concentration: 10 µM
Target: Muscarinic acetylcholine receptor M5 (CHRM5, Homo sapiens, UniProt P08912)
Chain of UniProt P08912 (whole entry, looked up): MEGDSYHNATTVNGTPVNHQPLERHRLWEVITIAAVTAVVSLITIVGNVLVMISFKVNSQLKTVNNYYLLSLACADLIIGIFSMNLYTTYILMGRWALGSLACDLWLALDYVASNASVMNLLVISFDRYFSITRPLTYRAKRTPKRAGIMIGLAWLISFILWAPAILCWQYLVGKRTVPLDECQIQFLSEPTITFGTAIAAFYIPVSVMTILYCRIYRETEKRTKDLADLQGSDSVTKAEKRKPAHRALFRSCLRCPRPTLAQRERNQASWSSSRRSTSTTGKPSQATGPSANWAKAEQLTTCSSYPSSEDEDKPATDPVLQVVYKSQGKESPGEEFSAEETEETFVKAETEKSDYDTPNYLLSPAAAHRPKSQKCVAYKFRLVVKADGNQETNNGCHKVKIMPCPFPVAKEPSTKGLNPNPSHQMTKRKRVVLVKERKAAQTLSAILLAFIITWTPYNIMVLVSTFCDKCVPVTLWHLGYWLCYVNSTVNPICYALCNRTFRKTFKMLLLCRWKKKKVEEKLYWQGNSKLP
Structure (SMILES) | inhibition
CN1CCN(c2ccnc(NCCc3ccccc3)n2)CC1 | 6.46%
C[C@@H]1CN(c2cc(-c3n[nH]c4ccc(OC5(C)CC5)cc34)ncn2)C[C@H](C)O1 | 1%
CN([C@@H]1CCc2c(CC(=O)O)c3ccccc3n2C1)S(=O)(=O)c1ccc(F)cc1 | 6.97%
Cn1cc(Cl)c2c(Oc3c(F)cc(Nc4cc(Cl)nc(N)n4)cc3F)ccnc21 | 3.3%
COc1cccc(NC(=O)c2nc3scc(CN(C)Cc4ccccc4)c3c(=O)[nH]2)c1 | 2.66%
CCOc1ccc(S(=O)(=O)Nc2ccc(Cl)cc2C#Cc2cnc(C(=O)O)cc2OC)c2ncccc12 | -6.26%
C[C@@H](c1cccc(C#N)c1)n1cc(Cl)cc(C(N)=O)c1=N | -1.05%
CNC(=O)Nc1ccc2c(c1)CC[C@]21OC(=O)N(CC(=O)N(Cc2ccc(F)cc2)[C@@H](C)C(F)(F)F)C1=O | 2.39%
Cc1cc(Nc2nccc(C)n2)cc(-c2cnc([C@@]3(O)CC[C@H](C(=O)O)C(C)(C)C3)s2)c1 | 0.943%
Cn1nc(C(=O)NCc2ccc(C(=O)O)cc2)cc1-c1ccc2[nH]ccc2c1 | -7.43%
O=C(NS(=O)(=O)c1ccc(NCC2CCOCC2)c([N+](=O)[O-])c1)c1ccc(N2CCN(Cc3ccc(C(F)(F)F)cc3-c3ccc(Cl)cc3)CC2)cc1Oc1cnc2[nH]ccc2c1 | 10%
CC[C@H](CC(=O)O)n1c(=O)c2ncccc2n(Cc2cn(C)c3cc(C)cc(C)c23)c1=O | 8.73%
c1ccc(C2CCN(c3cnc4c(N5CCOCC5)nccn34)CC2)cc1 | -14.5%
CCC(F)(F)c1cc(N2CCC(S(C)(=O)=O)CC2)nc2sc(C(N)=O)c(N)c12 | -10.3%

Single results of other studies
Structure (SMILES) | target | assay | conditions | measurement | result
Cc1ccc2c(c1)sc(-c1ccc(N(C)C)cc1)[n+]2C | G-quadruplex RNA, G-quadruplex (Homo sapiens) | fluorescence turn-on | KCl 150 mM | binding | binds

For quick reference, copied from above (block 3):
Structure (SMILES) | inhibition
Cc1cc(Nc2nccc(C)n2)cc(-c2cnc([C@@]3(O)CC[C@H](C(=O)O)C(C)(C)C3)s2)c1 | 0.943%
Cn1nc(C(=O)NCc2ccc(C(=O)O)cc2)cc1-c1ccc2[nH]ccc2c1 | -7.43%
O=C(NS(=O)(=O)c1ccc(NCC2CCOCC2)c([N+](=O)[O-])c1)c1ccc(N2CCN(Cc3ccc(C(F)(F)F)cc3-c3ccc(Cl)cc3)CC2)cc1Oc1cnc2[nH]ccc2c1 | 10%
CC[C@H](CC(=O)O)n1c(=O)c2ncccc2n(Cc2cn(C)c3cc(C)cc(C)c23)c1=O | 8.73%
c1ccc(C2CCN(c3cnc4c(N5CCOCC5)nccn34)CC2)cc1 | -14.5%
